Experimental data gathered from unrelated publications.
Parts stem from different laboratories: compare values within a part only. “And” joins repeats or separate records; there may be more than shown.
UniProt P42336, sequence (whole entry, unmodified, looked up): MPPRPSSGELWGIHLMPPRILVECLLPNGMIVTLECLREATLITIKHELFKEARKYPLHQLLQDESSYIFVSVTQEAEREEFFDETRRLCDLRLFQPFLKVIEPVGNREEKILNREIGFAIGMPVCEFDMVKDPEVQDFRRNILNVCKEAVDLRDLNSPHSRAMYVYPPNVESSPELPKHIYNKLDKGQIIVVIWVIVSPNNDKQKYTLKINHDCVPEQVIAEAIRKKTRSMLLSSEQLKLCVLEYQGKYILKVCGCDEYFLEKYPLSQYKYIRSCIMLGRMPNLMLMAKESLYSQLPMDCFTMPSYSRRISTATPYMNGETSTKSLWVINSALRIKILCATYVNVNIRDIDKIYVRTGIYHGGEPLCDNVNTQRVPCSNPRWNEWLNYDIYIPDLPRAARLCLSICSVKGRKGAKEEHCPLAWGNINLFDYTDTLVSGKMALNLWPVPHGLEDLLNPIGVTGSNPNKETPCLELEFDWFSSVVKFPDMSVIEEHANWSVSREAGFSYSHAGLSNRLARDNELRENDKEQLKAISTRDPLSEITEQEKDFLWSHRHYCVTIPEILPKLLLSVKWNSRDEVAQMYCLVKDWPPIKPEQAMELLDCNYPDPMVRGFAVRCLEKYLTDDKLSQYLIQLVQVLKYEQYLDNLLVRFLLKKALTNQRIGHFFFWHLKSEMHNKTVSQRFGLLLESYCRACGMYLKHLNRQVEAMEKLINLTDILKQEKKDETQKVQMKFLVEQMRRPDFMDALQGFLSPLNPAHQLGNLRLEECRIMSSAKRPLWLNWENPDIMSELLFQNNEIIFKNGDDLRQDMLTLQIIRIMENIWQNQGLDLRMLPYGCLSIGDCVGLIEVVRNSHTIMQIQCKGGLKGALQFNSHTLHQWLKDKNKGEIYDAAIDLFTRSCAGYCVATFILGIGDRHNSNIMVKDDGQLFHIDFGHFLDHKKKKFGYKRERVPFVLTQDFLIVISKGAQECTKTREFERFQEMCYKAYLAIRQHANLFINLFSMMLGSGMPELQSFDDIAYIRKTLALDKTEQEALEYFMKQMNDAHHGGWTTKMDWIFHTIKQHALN
UniProt O75747, sequence (whole entry, looked up): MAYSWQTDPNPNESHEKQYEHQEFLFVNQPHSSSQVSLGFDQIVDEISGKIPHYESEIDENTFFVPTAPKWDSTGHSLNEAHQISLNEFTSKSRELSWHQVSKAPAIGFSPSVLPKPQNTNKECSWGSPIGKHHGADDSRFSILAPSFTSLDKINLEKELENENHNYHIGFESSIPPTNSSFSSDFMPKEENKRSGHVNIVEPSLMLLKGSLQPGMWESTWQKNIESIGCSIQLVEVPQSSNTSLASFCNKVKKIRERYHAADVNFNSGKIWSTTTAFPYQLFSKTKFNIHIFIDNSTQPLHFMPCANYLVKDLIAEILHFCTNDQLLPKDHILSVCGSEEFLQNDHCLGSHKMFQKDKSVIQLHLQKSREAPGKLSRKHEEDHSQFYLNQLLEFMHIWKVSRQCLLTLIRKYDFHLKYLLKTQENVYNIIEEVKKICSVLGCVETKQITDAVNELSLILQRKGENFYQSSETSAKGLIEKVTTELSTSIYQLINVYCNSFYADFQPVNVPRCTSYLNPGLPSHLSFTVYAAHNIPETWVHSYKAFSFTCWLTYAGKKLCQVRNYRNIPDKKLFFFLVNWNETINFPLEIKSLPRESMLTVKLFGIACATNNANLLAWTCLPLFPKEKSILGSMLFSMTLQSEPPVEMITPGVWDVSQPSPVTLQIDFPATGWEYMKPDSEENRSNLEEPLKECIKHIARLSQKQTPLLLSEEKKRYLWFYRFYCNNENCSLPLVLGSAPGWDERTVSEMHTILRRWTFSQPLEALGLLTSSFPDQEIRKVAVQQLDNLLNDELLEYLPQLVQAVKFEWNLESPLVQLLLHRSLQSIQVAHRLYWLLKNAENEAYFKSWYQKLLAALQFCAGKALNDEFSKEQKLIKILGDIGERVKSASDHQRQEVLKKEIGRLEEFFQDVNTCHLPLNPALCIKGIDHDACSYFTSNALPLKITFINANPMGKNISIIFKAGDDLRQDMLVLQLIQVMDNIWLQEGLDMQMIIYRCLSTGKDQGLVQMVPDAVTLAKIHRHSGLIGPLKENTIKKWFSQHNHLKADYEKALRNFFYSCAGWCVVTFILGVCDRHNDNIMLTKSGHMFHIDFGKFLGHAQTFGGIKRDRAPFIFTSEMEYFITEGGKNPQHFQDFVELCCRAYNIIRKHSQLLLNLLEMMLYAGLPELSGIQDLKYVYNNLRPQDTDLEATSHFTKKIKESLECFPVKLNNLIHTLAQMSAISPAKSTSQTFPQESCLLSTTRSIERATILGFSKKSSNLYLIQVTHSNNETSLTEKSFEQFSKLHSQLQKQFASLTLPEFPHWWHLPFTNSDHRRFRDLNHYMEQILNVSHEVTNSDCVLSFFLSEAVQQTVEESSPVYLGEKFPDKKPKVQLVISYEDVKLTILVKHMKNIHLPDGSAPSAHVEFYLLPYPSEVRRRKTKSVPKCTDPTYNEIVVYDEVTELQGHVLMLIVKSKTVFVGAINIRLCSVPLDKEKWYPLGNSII
UniProt Q8NE63, sequence (whole entry, looked up): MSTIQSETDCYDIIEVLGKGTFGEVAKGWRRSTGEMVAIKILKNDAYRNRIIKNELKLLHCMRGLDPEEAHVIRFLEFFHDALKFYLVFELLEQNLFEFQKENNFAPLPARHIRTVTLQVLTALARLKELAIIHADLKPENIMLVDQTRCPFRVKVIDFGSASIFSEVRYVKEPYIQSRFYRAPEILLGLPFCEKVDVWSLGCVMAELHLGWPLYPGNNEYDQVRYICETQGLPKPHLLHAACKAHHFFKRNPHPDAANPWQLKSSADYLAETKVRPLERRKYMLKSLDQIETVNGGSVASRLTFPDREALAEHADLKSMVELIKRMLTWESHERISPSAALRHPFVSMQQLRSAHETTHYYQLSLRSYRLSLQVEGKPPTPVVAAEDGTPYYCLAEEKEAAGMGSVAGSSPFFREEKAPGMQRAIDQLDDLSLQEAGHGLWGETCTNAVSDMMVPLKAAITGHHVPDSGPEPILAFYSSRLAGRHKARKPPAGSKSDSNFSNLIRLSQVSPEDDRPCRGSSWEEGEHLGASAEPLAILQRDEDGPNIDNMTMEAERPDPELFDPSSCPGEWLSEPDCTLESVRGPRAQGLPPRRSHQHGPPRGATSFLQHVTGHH
UniProt Q8IYT8, sequence (whole entry, looked up): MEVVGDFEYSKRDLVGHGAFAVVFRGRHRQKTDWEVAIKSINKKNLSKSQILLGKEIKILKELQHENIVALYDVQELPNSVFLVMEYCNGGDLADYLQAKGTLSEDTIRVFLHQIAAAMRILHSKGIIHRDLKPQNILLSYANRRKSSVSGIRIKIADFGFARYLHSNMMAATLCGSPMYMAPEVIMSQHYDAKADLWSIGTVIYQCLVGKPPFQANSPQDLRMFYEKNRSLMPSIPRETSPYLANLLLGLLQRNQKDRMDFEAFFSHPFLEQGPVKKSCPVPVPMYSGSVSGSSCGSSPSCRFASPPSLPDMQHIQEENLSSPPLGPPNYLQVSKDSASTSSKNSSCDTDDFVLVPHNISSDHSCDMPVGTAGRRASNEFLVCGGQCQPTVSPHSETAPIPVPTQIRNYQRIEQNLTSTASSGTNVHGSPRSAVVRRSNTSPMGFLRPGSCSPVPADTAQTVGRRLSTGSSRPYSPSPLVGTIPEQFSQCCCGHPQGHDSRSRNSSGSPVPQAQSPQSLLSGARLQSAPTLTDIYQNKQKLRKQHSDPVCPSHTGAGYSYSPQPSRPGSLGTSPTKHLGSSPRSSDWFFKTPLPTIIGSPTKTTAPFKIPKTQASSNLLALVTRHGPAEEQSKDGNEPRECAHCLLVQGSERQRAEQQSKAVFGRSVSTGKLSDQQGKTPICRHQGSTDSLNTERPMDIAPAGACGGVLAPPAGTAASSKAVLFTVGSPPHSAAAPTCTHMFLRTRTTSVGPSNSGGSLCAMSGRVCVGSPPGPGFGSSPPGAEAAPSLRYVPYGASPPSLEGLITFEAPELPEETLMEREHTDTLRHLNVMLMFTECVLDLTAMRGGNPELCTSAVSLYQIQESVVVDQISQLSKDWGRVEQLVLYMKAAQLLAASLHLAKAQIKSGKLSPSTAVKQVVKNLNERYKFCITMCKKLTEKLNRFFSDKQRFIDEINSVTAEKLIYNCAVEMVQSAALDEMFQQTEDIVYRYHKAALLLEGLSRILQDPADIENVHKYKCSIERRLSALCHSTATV
UniProt P11802, sequence (whole entry, looked up): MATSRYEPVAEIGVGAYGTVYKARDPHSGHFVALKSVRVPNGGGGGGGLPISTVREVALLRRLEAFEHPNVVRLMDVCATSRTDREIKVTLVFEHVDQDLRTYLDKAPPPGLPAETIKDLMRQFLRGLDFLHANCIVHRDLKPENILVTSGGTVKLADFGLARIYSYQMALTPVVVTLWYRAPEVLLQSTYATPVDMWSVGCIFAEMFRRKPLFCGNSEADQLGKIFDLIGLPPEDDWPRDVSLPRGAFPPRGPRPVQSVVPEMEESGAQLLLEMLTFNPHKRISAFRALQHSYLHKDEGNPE
UniProt O15530, sequence (whole entry, looked up): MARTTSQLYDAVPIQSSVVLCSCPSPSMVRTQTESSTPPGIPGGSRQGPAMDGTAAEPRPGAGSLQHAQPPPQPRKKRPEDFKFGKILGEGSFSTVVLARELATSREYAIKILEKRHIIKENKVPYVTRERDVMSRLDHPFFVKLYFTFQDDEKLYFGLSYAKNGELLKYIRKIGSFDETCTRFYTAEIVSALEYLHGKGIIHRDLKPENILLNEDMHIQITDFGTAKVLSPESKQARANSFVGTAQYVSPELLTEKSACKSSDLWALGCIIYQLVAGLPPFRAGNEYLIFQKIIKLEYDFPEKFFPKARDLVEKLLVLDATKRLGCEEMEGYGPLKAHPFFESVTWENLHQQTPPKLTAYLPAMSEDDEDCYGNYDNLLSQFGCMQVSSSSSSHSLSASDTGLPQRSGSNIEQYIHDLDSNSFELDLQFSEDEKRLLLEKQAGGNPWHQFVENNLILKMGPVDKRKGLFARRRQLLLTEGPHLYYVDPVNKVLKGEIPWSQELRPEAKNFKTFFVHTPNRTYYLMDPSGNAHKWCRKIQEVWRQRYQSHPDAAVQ

Study 1 — technique: competition with immobilised ligand; concentration: 1 µM
Compound: CO[C@@H](C)c1c(Nc2ccc([C@@H](N(C)C(=O)C3CCS(=O)(=O)CC3)C(F)(F)F)cc2)cnc2cc(Cl)nn12
| target | effect on | remaining binding |
| --- | --- | --- |
| MAST1 (Homo sapiens, UniProt Q9Y2H9) | binding | 29% |
| IRAK1 (Homo sapiens, UniProt P51617) | cell-free assay | 82% |
| SLK (Homo sapiens, UniProt Q9H2G2) | cell-free assay | 83% |
| PIK3CA (Homo sapiens, UniProt P42336, I800L) | cell-free assay | 71% |
| Tyrosine-protein kinase JAK1, JH1 (JAK1, Homo sapiens, UniProt P23458) | cell-free assay | 90% |
| NIM1K (Homo sapiens, UniProt Q8IY84) | cell-free assay | 85% |
| PIK3C2G (Homo sapiens, UniProt O75747) | cell-free assay | 88% |
| NUAK1 (Homo sapiens, UniProt O60285) | cell-free assay | 99% |
| ULK2 (Homo sapiens, UniProt Q8IYT8) | cell-free assay | 92% |
| PIK3CA (Homo sapiens, UniProt P42336, M1043I) | cell-free assay | 100% |
| MAP3K4 (Homo sapiens, UniProt Q9Y6R4) | cell-free assay | 89% |
| PIKFYVE (Homo sapiens, UniProt Q9Y2I7) | cell-free assay | 65% |
| RET (Homo sapiens, UniProt P07949, V804M) | cell-free assay | 87% |
| EGFR (Homo sapiens, UniProt P00533, G719C) | cell-free assay | 98% |
| KIT (Homo sapiens, UniProt P10721, V559D) | cell-free assay | 100% |

Study 2 — effect on: enzyme activity; action: inhibitor; concentration: 0.5 µM; baseline: control
SMILES: O=c1c(-c2ccc(F)cc2)c(-c2ccncc2)[nH]n1-c1ccc(Cl)cc1
| target | remaining activity |
| --- | --- |
| EPHB4 (Homo sapiens, UniProt P54760) | 97.2% |
| Cyclin-dependent kinase 4, with cyclin D3 (CDK4, Homo sapiens, UniProt P11802) | 101% |
| Cyclin-dependent kinase 6, with cyclin D3 (CDK6, Homo sapiens, UniProt Q00534) | 93.7% |
| MAPKAPK3 (Homo sapiens, UniProt Q16644) | 101% |
| DYRK3 (Homo sapiens, UniProt O43781) | 82.7% |
| HIPK2 (Homo sapiens, UniProt Q9H2X6) | 89% |
| CAMK2B (Homo sapiens, UniProt Q13554) | 93.7% |
| AXL (Homo sapiens, UniProt P30530) | 113% |
| PDPK1 (Homo sapiens, UniProt O15530) | 104% |
| HIPK4 (Homo sapiens, UniProt Q8NE63) | 94.6% |
| PRKACG (Homo sapiens, UniProt P22612) | 91.8% |
| Cyclin-dependent kinase 1, with cyclin B (CDK1, Homo sapiens, UniProt P06493) | 106% |

Study 3 — cell line: mouse MPNST tumor cells; technique: high-content immunofluorescence imaging; refers to: nuclear SOX9; concentration: 10 µM; time: 12 h; setting: mean of 2 replicates; baseline: DMSO control; direction: higher = more nuclear SOX9
| SMILES | nuclear SOX9 intensity |
| --- | --- |
| COc1ccc(S(=O)(=O)Nc2c(C)cc(C)cc2C)cc1 | 112 % of DMSO |
| CCn1c(-c2nonc2N)nc2c(C#CC(C)(C)O)ncc(OC[C@H]3CCCNC3)c21 | 185 % of DMSO |
| OC(CCN1CCCCC1)(c1ccccc1)C1CC2C=CC1C2 (stereo not shown) | 121 % of DMSO |
| COC(=O)C1=C(C)NC(C)=C(C(=O)OCC(C)C)C1c1ccccc1[N+](=O)[O-] (stereo not shown) | 113 % of DMSO and 109 % of DMSO |
| CCCCCCN(CCCCCC)C(=O)Cc1c(-c2ccc(Cl)cc2)[nH]c2ccc(Cl)cc12 | 90.5 % of DMSO |
| CCCCOc1nc(N)c2[nH]c(=O)n(Cc3cccc(CC(=O)OC)c3)c2n1 | 92.3 % of DMSO |
| O=C(NC1CC1)c1cc(-c2cccs2)on1 | 124 % of DMSO |
| C[C@H]1C[C@H]2[C@@H]3CCC4=CC(=O)C=C[C@]4(C)[C@@]3(F)[C@@H](O)C[C@]2(C)[C@@]1(O)C(=O)CO | 79.7 % of DMSO |
| Cc1cn[nH]c1 | 106 % of DMSO and 98.7 % of DMSO |
| O=C(O)c1ccc(C=C2SC(=S)N(c3cccc(C(F)(F)F)c3)C2=O)cc1 | 98.4 % of DMSO |
| O=C1NC(=O)c2c1c(-c1ccccc1)cc1[nH]c3ccc(O)cc3c21 | 163 % of DMSO |
| COc1cc(OC)c(C(=O)CCCCN2CCC3(CC2)NC(=O)NC3=O)cc1NS(=O)(=O)c1ccc(C(F)(F)F)cc1 | 107 % of DMSO |

Study 4 — technique: phase 2a trial; species: idiopathic pulmonary fibrosis patients
Compound: CC(C)n1cnc(-c2ccc(F)cc2)c1-c1ncc(C(=O)Nc2ccc(N3CCN(C)CC3)cc2)[nH]1
| dose | setting | patients with gastritis |
| --- | --- | --- |
| 60 mg once daily | adverse event grade 5 | 0% |
| dose not given | grade 2, arms pooled | 1% |
| 60 mg once daily | adverse event grade 1 | 0% |
| 30 mg once daily | adverse event grade 1 | 0% |
| 30 mg once daily | adverse event grade 2 | 0% |
| 60 mg once daily | adverse event grade 4 | 0% |
| 30 mg once daily | adverse event grade 3 | 0% |

A few entries again (study 3):
| SMILES | nuclear SOX9 intensity |
| --- | --- |
| O=C1NC(=O)c2c1c(-c1ccccc1)cc1[nH]c3ccc(O)cc3c21 | 163 % of DMSO |
| CCCCCCN(CCCCCC)C(=O)Cc1c(-c2ccc(Cl)cc2)[nH]c2ccc(Cl)cc12 | 90.5 % of DMSO |
| CCCCOc1nc(N)c2[nH]c(=O)n(Cc3cccc(CC(=O)OC)c3)c2n1 | 92.3 % of DMSO |
| CCn1c(-c2nonc2N)nc2c(C#CC(C)(C)O)ncc(OC[C@H]3CCCNC3)c21 | 185 % of DMSO |
